Assay results gathered from unrelated publications.
Lines come from different studies, so protocols differ. ± marks the error that the study gave.

With `Clc1ccc(-c2nn3c(Cn4cnc5ccccc54)nnc3s2)c(Cl)n1` the CC50 was 19.2 µM (HEp-2; cytotoxicity).
With `CCOCOC[C@H](C[C@H](C)C(=O)NO)NC(=O)c1ccc(Oc2ccccc2)cc1` the CC50 was > 10 µM (293T or HeLa; CellTiter-Glo; 72 h).
The CC50 of `Brc1ccccc1-c1nn2c(Cn3cnc4ccccc43)nnc2s1` is reported as 23.1 µM (HEp-2; cytotoxicity).
The CC50 of `CC[C@H](CO)Nc1nc(NCc2ccc(-c3ccccn3)cc2)c2ncn(C(C)C)c2n1` is reported as 6.84 µM (NCI-60 cell lines; mean).
`CC[C@H](C)[C@H](NC(=O)[C@H](Cc1ccccc1)NC(=O)[C@H](Cc1ccccc1)NC(=O)[C@@H](NC(=O)[C@@H](NC(=O)[C@H](CCCCN)NC(=O)[C@H](CCC(N)=O)NC(=O)[C@H](Cc1c[nH]cn1)NC(=O)[C@H](CO)NC(=O)[C@H](CO)NC(=O)[C@@H](NC(=O)[C@@H]1CCCN1C(=O)[C@H](C)NC(=O)[C@H](Cc1ccccc1)NC(=O)[C@H](CCCNC(=N)N)NC(=O)[C@H](CC(C)C)NC(=O)[C@H](Cc1ccccc1)NC(=O)[C@H](CCCCN)NC(=O)[C@H](C)NC(=O)CNC(=O)[C@H](CCCCN)NC(=O)[C@H](CCCNC(=N)N)NC(=O)[C@H](CCCCN)NC(=O)[C@@H](NC(=O)[C@H](Cc1ccccc1)NC(=O)[C@@H](NC(=O)[C@H](CC(=O)O)NC(=O)[C@@H](NC(=O)[C@@H](NC(=O)[C@@H](N)CCCCN)[C@@H](C)CC)[C@@H](C)O)C(C)C)C(C)C)C(C)C)C(C)C)[C@@H](C)O)C(=O)N[C@@H](Cc1c[nH]cn1)C(=O)O` gave a CC50 of 98.1 µM (THP-1, PMA-differentiated; cell viability, MTT).
`C[C@H]1CCC/C=C/[C@@H]2C[C@H](O)C[C@H]2[C@H](O)/C=C/C(=O)O1` has a CC50 of 0.07 µM (THP-1 PMA-differentiated macrophages; CellTiter-Glo; 72 h, host cell cytotoxicity).
`CC[C@H](C)[C@H](N)C(=O)N1CCC[C@H]1C(=O)N[C@@H](CC(C)C)C(=O)N[C@@H](Cc1ccccc1)C(=O)N[C@@H](CCCNC(=N)N)C(=O)N[C@@H](CCCNC(=N)N)C(=O)N[C@@H](Cc1ccccc1)C(=O)NCC(=O)N[C@@H](CCCNC(=N)N)C(=O)N[C@@H](CCC(N)=O)C(=O)N[C@@H](CCCNC(=N)N)C(=O)N[C@@H](CCCCN)C(=O)N[C@H](C(=O)NCC(=O)NCC(=O)N[C@@H](CCCNC(=N)N)C(=O)NCC(=O)N[C@@H](CCCNC(=N)N)C(=O)N[C@H](C(=O)N[C@H](C(=O)N[C@@H](CO)C(=O)N1CCC[C@H]1C(=O)N[C@@H](Cc1ccc(O)cc1)C(=O)N[C@@H](CCCNC(=N)N)C(=O)N[C@H](C(=O)N1CCC[C@H]1C(=O)N[C@H](C(=O)N[C@@H](CC(C)C)C(=O)N[C@@H](CCCNC(=N)N)C(=O)N[C@@H](CCCNC(=N)N)C(=O)N[C@@H](Cc1c[nH]cn1)C(=O)N[C@@H](CCCNC(=N)N)C(=O)N[C@@H](Cc1ccc(O)cc1)C(=O)N[C@@H](CO)C(=O)N[C@H](C(=O)N[C@@H](Cc1ccccc1)C(=O)N[C@@H](CCCNC(=N)N)C(=O)O)[C@@H](C)CC)C(C)C)[C@@H](C)O)[C@@H](C)CC)[C@@H](C)CC)[C@@H](C)CC` has a CC50 of 34.9 µM (THP-1, PMA-differentiated; cell viability, MTT).
The CC50 of `O=C(CC1NCCCC1O)Cn1cnc2cc(Br)c(Cl)cc2c1=O` (stereo not shown) is reported as 0.0399 µM (LMH chicken hepatoma cells).
For `CC[C@H](C)[C@H](N)C(=O)N[C@@H](CCCNC(=N)N)C(=O)N[C@@H](CCCNC(=N)N)C(=O)N[C@@H](C)C(=O)N[C@H](C(=O)N[C@@H](CC(N)=O)C(=O)N[C@@H](CCCCN)C(=O)N[C@@H](Cc1ccc(O)cc1)C(=O)N1CCC[C@H]1C(=O)N1CCC[C@H]1C(=O)N[C@H](C(=O)N[C@@H](CC(N)=O)C(=O)N[C@@H](CC(C)C)C(=O)N[C@@H](CCCCN)C(=O)N[C@H](C(=O)N[C@@H](CCCCN)C(=O)N[C@@H](CS)C(=O)N[C@@H](CC(N)=O)C(=O)N[C@@H](CCCNC(=N)N)C(=O)N[C@@H](CC(C)C)C(=O)N[C@@H](CC(N)=O)C(=O)N[C@@H](CO)C(=O)N[C@H](C(=O)N[C@@H](CC(=O)O)C(=O)N1CCC[C@H]1C(=O)N[C@@H](CCCCN)C(=O)N[C@@H](CCC(N)=O)C(=O)N1CCC[C@H]1C(=O)N1CCC[C@H]1C(=O)N[C@@H](CCCNC(=N)N)C(=O)N1CCC[C@H]1C(=O)N[C@@H](Cc1ccccc1)C(=O)N[C@@H](CCCNC(=N)N)C(=O)N[C@@H](CO)C(=O)N[C@@H](Cc1ccccc1)C(=O)N[C@H](C(=O)N1CCC[C@H]1C(=O)NCC(=O)N1CCC[C@H]1C(=O)N[C@@H](CC(C)C)C(=O)N[C@@H](CCCCN)C(=O)N[C@@H](C)C(=O)N[C@H](C(=O)N[C@@H](CC(C)C)C(=O)N[C@@H](CCCCN)C(=O)O)[C@@H](C)O)C(C)C)[C@@H](C)CC)[C@@H](C)CC)[C@@H](C)CC)[C@@H](C)CC`, the CC50 was 25.6 µM (THP-1, PMA-differentiated; cell viability, MTT).
With `Clc1ccc(Cl)c(-c2nn3c(Cn4nnc5ccccc54)nnc3s2)c1` the CC50 was > 100 µM (HEp-2; cytotoxicity).
`CN[C@@H]1C[C@H]2O[C@@](C)([C@@H]1OC)n1c3ccccc3c3c4c(c5c6ccccc6n2c5c31)C(=O)NC4` gave a CC50 of 0.025 µM (THP-1; 72 (unit not given)).
`COc1ccc(N(Cc2cc(Cl)cs2)C(=O)Cc2cncc3ccccc23)cc1` has a CC50 of 87.5 µM (Calu-3; 48 h).
The CC50 of `Ic1ccccc1-c1nn2c(Cn3cnc4ccccc43)nnc2s1` is reported as 55.9 µM (HEp-2; cytotoxicity).
For `N#C[C@@]1(n2ccc(N)nc2=O)O[C@H](CO)[C@@H](O)[C@H]1O`, the CC50 was 53 ± 34.1 µM (CEM).
The CC50 of `CC(C)C[C@H](NC(=O)[C@H](CCCNC(=N)N)NC(=O)[C@H](CCCNC(=N)N)NC(=O)[C@H](CCCNC(=N)N)NC(=O)[C@@H]1CCCN1C(=O)[C@H](Cc1ccccc1)NC(=O)[C@H](Cc1ccc(O)cc1)NC(=O)[C@H](CCCNC(=N)N)NC(=O)[C@H](Cc1ccc(O)cc1)NC(=O)[C@@H](NC(=O)[C@H](CC(C)C)NC(=O)[C@H](Cc1ccc(O)cc1)NC(=O)[C@H](CCCNC(=N)N)NC(=O)[C@H](Cc1c[nH]cn1)NC(=O)[C@@H]1CCCN1C(=O)[C@H](Cc1c[nH]c2ccccc12)NC(=O)[C@H](Cc1ccc(O)cc1)NC(=O)[C@H](Cc1ccccc1)NC(=O)[C@@H]1CCCN1C(=O)[C@H](CCC(N)=O)NC(=O)[C@H](Cc1ccccc1)NC(=O)[C@@H]1CCCN1C(=O)[C@H](Cc1ccccc1)NC(=O)[C@H](CCCNC(=N)N)NC(=O)[C@H](Cc1c[nH]cn1)NC(=O)[C@H](CC(N)=O)NC(=O)[C@H](CS)NC(=O)[C@H](CCCNC(=N)N)NC(=O)[C@H](CO)NC(=O)[C@@H]1CCCN1C(=O)[C@@H](NC(=O)[C@H](Cc1ccccc1)NC(=O)[C@@H]1CCCN1C(=O)[C@@H](N)CCCNC(=N)N)C(C)C)[C@@H](C)O)C(=O)N[C@@H](CCC(N)=O)C(=O)N[C@@H](CCCNC(=N)N)C(=O)O` is reported as 91.9 µM (THP-1, PMA-differentiated; cell viability, MTT).
For `COc1cc(-c2nn3c(Cn4cnc5ccccc54)nnc3s2)cc(OC)c1OC`, the CC50 was > 100 µM (HEp-2; cytotoxicity).
With `CSc1ccc(N(Cc2cc(Cl)cs2)C(=O)Cc2cncc3ccccc23)cc1` the CC50 was 84.1 µM (Calu-3; 48 h).
`CC(C)C[C@H](NC(=O)[C@H](CCCNC(=N)N)NC(=O)[C@H](CCCNC(=N)N)NC(=O)[C@H](CCCNC(=N)N)NC(=O)[C@@H]1CCCN1C(=O)[C@H](Cc1ccccc1)NC(=O)[C@H](Cc1ccc(O)cc1)NC(=O)[C@H](CCCNC(=N)N)NC(=O)[C@H](Cc1ccc(O)cc1)NC(=O)[C@@H](NC(=O)[C@H](CC(C)C)NC(=O)[C@H](Cc1ccc(O)cc1)NC(=O)[C@H](CCCNC(=N)N)NC(=O)[C@H](Cc1c[nH]cn1)NC(=O)[C@@H]1CCCN1C(=O)[C@H](Cc1c[nH]c2ccccc12)NC(=O)[C@H](Cc1ccc(O)cc1)NC(=O)[C@H](Cc1ccccc1)NC(=O)[C@@H]1CCCN1C(=O)[C@H](CCC(N)=O)NC(=O)[C@H](Cc1ccccc1)NC(=O)[C@@H]1CCCN1C(=O)[C@H](Cc1ccccc1)NC(=O)[C@H](CCCNC(=N)N)NC(=O)[C@H](Cc1c[nH]cn1)NC(=O)[C@H](CC(N)=O)NC(=O)[C@H](CS)NC(=O)[C@H](CCCNC(=N)N)NC(=O)[C@H](CO)NC(=O)[C@@H]1CCCN1C(=O)[C@@H](NC(=O)[C@H](Cc1ccccc1)NC(=O)[C@@H]1CCCN1C(=O)[C@H](CCCNC(=N)N)NC(=O)[C@H](CC(N)=O)NC(=O)[C@@H]1CCCN1C(=O)[C@H](Cc1ccccc1)NC(=O)[C@H](CCCNC(=N)N)NC(=O)[C@@H](N)Cc1ccccc1)C(C)C)[C@@H](C)O)C(=O)N[C@@H](CCC(N)=O)C(=O)N[C@@H](CCCNC(=N)N)C(=O)O` has a CC50 of 58 µM (THP-1, PMA-differentiated; cell viability, MTT).
`COc1ccc(-c2nn3c(Cn4cnc5ccccc54)nnc3s2)cc1` gave a CC50 of 35.5 µM (HEp-2; cytotoxicity).

Some of these lines once more:
For `COc1cc(-c2nn3c(Cn4cnc5ccccc54)nnc3s2)cc(OC)c1OC`, the CC50 was > 100 µM (HEp-2; cytotoxicity).
